{"data": "Measured values collected from several papers", "organism": "Trypanosoma brucei rhodesiense", "note": "Each line is one published result; not all experiments were run side by side. ± marks the error that the study gave."}
{"SMILES": "CCC[C@H](NC(=O)CN1C(=O)SC(=Cc2ccc3c(c2)OCO3)C1=O)C(=O)OCC", "test": "cell viability", "test system": "IL1501", "setting": "72 h", "IC50 [µM]": "> 58"}
{"SMILES": "O=[N+]([O-])c1ncn(CCCN2CCN(c3ccc(C(F)(F)F)cc3)CC2)n1", "test": "growth", "test system": "STIB900 bloodstream trypomastigotes", "IC50 [µM]": "0.5 to 6"}
{"SMILES": "O=[N+]([O-])c1ccc2[nH]ccc2c1", "test system": "trypomastigotes, IL1501", "IC50 [µM]": "> 154"}
{"SMILES": "O=[N+]([O-])c1ncn(CCCNc2nc(-c3ccccc3)nc3ccccc23)n1", "test": "growth", "test system": "STIB900", "setting": "bloodstream trypomastigotes", "IC50 [µM]": "0.5 to 6"}
{"SMILES": "O=[N+]([O-])c1ncn(CCCNc2nc3ccccc3s2)n1", "test": "growth", "test system": "STIB900 bloodstream trypomastigotes", "IC50 [µM]": "0.5 to 6"}
{"SMILES": "O=C1NC(=S)S/C1=C\\c1cn(Cc2cccc(Cl)c2)c2ccc([N+](=O)[O-])cc12", "test system": "trypomastigotes, IL1501", "IC50 [µM]": "> 61"}
{"SMILES": "O=[N+]([O-])c1ncn(CCCN2CCN(Cc3ccc(C(F)(F)F)cc3)CC2)n1", "test": "growth", "test system": "STIB900", "setting": "bloodstream trypomastigotes", "IC50 [µM]": "0.5 to 6"}
{"SMILES": "O=[N+]([O-])c1nccn1CCCCNc1nc2ccc(Cl)cc2s1", "test": "growth", "test system": "STIB900 bloodstream trypomastigotes", "IC50 [µM]": "0.5 to 6"}
{"SMILES": "CC(O)(Cn1cnc([N+](=O)[O-])n1)c1ccc(-n2ccnc2)cc1 (stereo not shown)", "test": "parasite growth", "test system": "STIB900 trypomastigotes", "IC50 [µM]": "0.5 to 6"}
{"SMILES": "O=C1NC(=S)S/C1=C\\c1c[nH]c2ccc([N+](=O)[O-])cc12", "test system": "trypomastigotes, IL1501", "IC50 [µM]": "81.9 ± 2.29"}
{"note": "Repeated from above:"}
{"SMILES": "O=[N+]([O-])c1ncn(CCCN2CCN(c3ccc(C(F)(F)F)cc3)CC2)n1", "test": "growth", "test system": "STIB900 bloodstream trypomastigotes", "IC50 [µM]": "0.5 to 6"}
